Assay results collected from several papers.
Lines come from different studies, so protocols differ. Numbers after ± are the reported error.
sdiA: Regulatory protein SdiA (sdiA, Escherichia coli, UniProt P07026)
UniProt P07026, sequence (whole entry, looked up): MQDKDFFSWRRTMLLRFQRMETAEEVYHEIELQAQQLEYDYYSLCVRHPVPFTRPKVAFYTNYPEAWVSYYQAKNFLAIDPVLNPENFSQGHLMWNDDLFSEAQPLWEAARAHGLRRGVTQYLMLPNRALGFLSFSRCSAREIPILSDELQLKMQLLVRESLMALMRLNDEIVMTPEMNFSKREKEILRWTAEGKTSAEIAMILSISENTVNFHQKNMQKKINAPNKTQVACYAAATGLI
NPY4R: Neuropeptide Y receptor type 4 (NPY4R, Homo sapiens, UniProt P50391)
UniProt P50391, sequence (whole entry, looked up): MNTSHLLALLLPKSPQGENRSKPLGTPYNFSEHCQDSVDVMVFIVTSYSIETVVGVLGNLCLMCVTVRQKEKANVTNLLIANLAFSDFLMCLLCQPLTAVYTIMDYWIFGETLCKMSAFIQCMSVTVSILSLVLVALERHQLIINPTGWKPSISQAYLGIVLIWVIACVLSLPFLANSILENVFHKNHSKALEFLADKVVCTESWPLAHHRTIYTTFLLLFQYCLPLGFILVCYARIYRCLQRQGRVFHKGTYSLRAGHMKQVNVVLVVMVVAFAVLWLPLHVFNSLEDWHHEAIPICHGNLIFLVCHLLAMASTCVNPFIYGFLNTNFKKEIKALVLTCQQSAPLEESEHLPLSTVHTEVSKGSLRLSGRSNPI
ADCYAP1R1 del89-109: Pituitary adenylate cyclase-activating polypeptide type I receptor (ADCYAP1R1, Homo sapiens, UniProt P41586, del89-109)
UniProt P41586, sequence (whole entry, unmodified, looked up): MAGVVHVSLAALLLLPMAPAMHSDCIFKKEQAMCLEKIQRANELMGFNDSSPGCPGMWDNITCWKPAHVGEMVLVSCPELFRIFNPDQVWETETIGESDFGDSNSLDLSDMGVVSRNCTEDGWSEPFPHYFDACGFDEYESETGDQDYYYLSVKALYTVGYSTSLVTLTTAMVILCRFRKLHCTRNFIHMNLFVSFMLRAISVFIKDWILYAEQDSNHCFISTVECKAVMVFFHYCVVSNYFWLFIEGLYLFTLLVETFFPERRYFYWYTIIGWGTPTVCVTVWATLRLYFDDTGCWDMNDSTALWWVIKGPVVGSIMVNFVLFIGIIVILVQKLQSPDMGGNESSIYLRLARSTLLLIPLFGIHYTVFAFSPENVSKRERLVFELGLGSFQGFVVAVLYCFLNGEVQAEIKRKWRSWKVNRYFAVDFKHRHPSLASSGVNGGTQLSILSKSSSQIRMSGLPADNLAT
UniProt Q9H7M9, sequence (whole entry, looked up): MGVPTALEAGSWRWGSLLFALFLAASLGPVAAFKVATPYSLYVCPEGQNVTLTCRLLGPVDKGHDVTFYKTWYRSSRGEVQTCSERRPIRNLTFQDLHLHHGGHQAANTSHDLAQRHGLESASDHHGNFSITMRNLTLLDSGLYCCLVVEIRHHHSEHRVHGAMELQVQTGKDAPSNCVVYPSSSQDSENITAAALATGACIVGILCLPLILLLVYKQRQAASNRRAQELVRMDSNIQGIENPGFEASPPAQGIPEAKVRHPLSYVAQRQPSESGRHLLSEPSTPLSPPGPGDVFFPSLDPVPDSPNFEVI
UniProt Q00526, sequence (whole entry, looked up): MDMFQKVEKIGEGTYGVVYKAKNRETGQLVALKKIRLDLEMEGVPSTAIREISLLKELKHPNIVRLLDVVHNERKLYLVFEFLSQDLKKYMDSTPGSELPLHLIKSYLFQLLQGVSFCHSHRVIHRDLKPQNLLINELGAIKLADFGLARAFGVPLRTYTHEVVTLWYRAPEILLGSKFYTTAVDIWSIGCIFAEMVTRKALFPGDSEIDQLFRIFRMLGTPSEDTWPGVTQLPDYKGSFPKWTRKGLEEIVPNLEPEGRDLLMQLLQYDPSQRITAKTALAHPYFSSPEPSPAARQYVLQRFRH
UniProt O55040, sequence (whole entry, looked up): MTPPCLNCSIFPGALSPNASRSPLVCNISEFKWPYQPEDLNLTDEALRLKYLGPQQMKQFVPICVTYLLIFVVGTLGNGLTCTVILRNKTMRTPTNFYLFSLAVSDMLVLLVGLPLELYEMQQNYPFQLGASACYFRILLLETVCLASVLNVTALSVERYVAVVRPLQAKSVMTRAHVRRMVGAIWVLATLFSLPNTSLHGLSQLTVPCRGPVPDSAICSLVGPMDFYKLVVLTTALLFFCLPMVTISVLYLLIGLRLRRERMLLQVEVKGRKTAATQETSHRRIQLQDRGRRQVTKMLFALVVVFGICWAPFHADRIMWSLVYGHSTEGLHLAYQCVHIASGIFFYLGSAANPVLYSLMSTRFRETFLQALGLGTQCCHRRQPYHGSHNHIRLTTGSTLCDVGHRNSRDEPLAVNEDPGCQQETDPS
UniProt P11712, sequence (whole entry, looked up): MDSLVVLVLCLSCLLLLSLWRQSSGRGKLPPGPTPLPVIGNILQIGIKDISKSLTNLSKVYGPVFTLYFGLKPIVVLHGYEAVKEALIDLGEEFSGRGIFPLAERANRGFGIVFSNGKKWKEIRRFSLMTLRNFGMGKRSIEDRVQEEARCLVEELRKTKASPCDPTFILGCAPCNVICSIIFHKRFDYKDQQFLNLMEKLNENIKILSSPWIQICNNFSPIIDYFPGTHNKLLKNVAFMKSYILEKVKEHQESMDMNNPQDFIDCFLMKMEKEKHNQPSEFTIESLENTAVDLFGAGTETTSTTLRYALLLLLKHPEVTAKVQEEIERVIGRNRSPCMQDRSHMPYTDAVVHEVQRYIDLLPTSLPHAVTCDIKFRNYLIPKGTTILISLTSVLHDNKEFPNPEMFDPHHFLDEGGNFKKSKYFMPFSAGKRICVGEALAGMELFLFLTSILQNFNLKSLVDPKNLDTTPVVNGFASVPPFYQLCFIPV
UniProt Q8TBX8, sequence (whole entry, looked up): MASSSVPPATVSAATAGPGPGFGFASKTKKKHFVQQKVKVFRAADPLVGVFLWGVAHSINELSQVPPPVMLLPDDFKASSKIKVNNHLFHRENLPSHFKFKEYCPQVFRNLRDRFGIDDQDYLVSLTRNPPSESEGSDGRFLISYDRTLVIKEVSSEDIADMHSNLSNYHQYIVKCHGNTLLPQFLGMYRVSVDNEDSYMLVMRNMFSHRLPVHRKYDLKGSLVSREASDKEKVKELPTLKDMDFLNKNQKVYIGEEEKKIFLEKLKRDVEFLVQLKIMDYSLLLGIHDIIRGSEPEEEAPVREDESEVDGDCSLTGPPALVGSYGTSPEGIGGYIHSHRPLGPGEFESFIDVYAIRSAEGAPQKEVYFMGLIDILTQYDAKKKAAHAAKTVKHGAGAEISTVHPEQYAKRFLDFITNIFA

SMILES | target or system | assay | system | conditions | how to read | measurement | value
O=C(Cc1cccc([N+](=O)[O-])c1)N[C@H]1CCOC1=O | sdiA | – | – | – | – | EC50 | 0.0016 µM
CC(=O)N[C@@H](CCCNC(=N)N)C(=O)N[C@@H](Cc1ccc(O)cc1)C(=O)N[C@H]1CCCNC(=N)NC(=O)NCCCCNC(=O)[C@H](Cc2ccc(O)cc2)NC(=O)[C@H](CCCNC(=N)N)NC(=O)[C@H](CC(C)C)NC1=O | NPY4R | β-arrestin-2 recruitment, antagonist | HEK293T-ARRB2 | added: 3 nM human pancreatic polypeptide | – | Kb | 1.88 ± 0.32 µM
CN(C)[C@H]1C[C@@]23CC[C@@]4(O2)C(=CC[C@]2(C)[C@@H](c5ccc6ccncc6c5)CC[C@H]24)C=C3[C@@H](O)[C@@H]1O | PIP4K2C (Homo sapiens, UniProt Q8TBX8) | ATP probe labelling, inhibitor, KiNativ profiling | – | 1 µM | – | inhibition | -9.5%
CSCC[C@H](NC(=O)[C@H](CCC(N)=O)NC(=O)[C@H](CCCCN)NC(=O)[C@H](CCCNC(=N)N)NC(=O)[C@H](Cc1ccc(O)cc1)NC(=O)[C@H](CCCNC(=N)N)NC(=O)[C@H](CO)NC(=O)[C@H](Cc1ccc(O)cc1)NC(=O)[C@H](CO)NC(=O)[C@H](CC(=O)O)NC(=O)[C@@H](NC(=O)[C@@H](N)Cc1ccccc1)[C@@H](C)O)C(=O)N[C@@H](C)C(=O)N[C@H](C(=O)N[C@@H](CCCCN)C(=O)N[C@@H](CCCCn1cc(C[C@H](NC(=O)CNC(=O)[C@H](CO)NC(=O)[C@H](CCCNC(=N)N)NC(=O)[C@H](CO)NC(=O)[C@H](CC(C)C)NC(=O)[C@H](CC(C)C)NC(=O)CNC(=O)[C@H](C)NC(=O)[C@H](CC(C)C)NC(=O)[C@H](CCCNC(=N)N)NC(=O)[C@H](Cc2c[nH]cn2)NC(=O)[C@@H](NC(=O)[C@@H](N)C(C)C)[C@@H](C)O)C(=O)N[C@H](C(=O)N[C@H](C(=O)N[C@@H](CCCCN)C(=O)N[C@@H](CC(N)=O)C(=O)N[C@@H](CC(N)=O)C(=O)N[C@@H](Cc2ccccc2)C(=O)N[C@H](C(=O)N2CCC[C@H]2C(=O)N[C@H](C(=O)N[C@@H](CC(N)=O)C(=O)N[C@H](C(=O)NCC(=O)N[C@@H](CO)C(=O)N[C@@H](CCCCN)C(=O)N[C@@H](C)C(=O)N[C@@H](Cc2ccccc2)C(N)=O)C(C)C)[C@@H](C)O)C(C)C)C(C)C)C(C)C)nn1)C(=O)N[C@@H](Cc1ccc(O)cc1)C(=O)N[C@@H](CC(C)C)C(=O)N[C@@H](C)C(=O)N[C@@H](C)C(=O)N[C@H](C(=O)N[C@@H](CC(C)C)C(=O)NCC(=O)N[C@@H](CCCCN)C(=O)N[C@@H](CCCNC(=N)N)C(=O)N[C@@H](Cc1ccc(O)cc1)C(=O)N[C@@H](CCCCN)C(=O)N[C@@H](CCC(N)=O)C(=O)N[C@@H](CCCNC(=N)N)C(=O)N[C@H](C(=O)N[C@@H](CCCCN)C(=O)N[C@@H](CC(N)=O)C(=O)N[C@@H](CCCCN)C(N)=O)C(C)C)C(C)C)C(C)C | ADCYAP1R1 del89-109 | cAMP accumulation, antagonist | – | added: PACAP-27 | – | Kb | 0.257 µM
CSCC[C@@H]1NC(=O)[C@H](Cc2ccccc2)NC(=O)[C@H](NC(=O)[C@H](C)N)CSC(=O)[C@H](C(C)C)NC(=O)[C@H](Cc2ccccc2)NC1=O | Histidine kinase AgrC (Listeria monocytogenes, UniProt A8E0G3) | – | – | – | – | EC50 | 0.106 µM
CCCCCCCCCCCCCCCCCC(=O)NC[C@H]1CC[C@H](C(=O)N[C@@H](CCC(=O)NCCCOCCOCCOCCCNC(=O)COCC(=O)N[C@@H](Cc2ccc(O)cc2)C(=O)NC(C)(Cc2ccccc2)C(=O)N[C@@H](CC(C)C)C(=O)N[C@@H](CCCC)C(=O)N[C@@H](CCCNC(=N)N)C(=O)N2CCC[C@H]2C(=O)N[C@@H](CCCNC(=N)NC)C(=O)N[C@@H](CC(N)=O)C(N)=O)C(=O)O)CC1 (stereo partly shown) | Neuromedin-U receptor 1 (Mus musculus, UniProt O55040) | inositol phosphate, agonist | – | – | – | EC50 | > 10 µM
COc1ccccc1-c1n[nH]c2nc(NC3CCN(C(=O)Cc4ccc(F)cc4F)CC3)ncc12 | – | bead binding, competition bead pull-down, measured: LINJ.10.0200 | Leishmania donovani extract | 10 µM | relative to: vehicle | relative abundance | 0.77
CSCC[C@H](NC(=O)[C@H](CCC(N)=O)NC(=O)[C@H](CCCCN)NC(=O)[C@H](CCCNC(=N)N)NC(=O)[C@H](Cc1ccc(O)cc1)NC(=O)[C@H](CCCNC(=N)N)NC(=O)[C@H](CO)NC(=O)[C@H](Cc1ccc(O)cc1)NC(=O)[C@H](CO)NC(=O)[C@H](CC(=O)O)NC(=O)[C@@H](NC(=O)[C@@H](N)Cc1ccccc1)[C@@H](C)O)C(=O)N[C@@H](C)C(=O)N[C@H](C(=O)N[C@@H](CCCCN)C(=O)N[C@@H](CCCCN)C(=O)N[C@@H](Cc1ccc(O)cc1)C(=O)N[C@@H](CC(C)C)C(=O)N[C@@H](C)C(=O)N[C@@H](C)C(=O)N[C@H](C(=O)N[C@@H](CC(C)C)C(=O)NCC(=O)N[C@@H](CCCCN)C(=O)N[C@@H](CCCNC(=N)N)C(=O)N[C@@H](Cc1ccc(O)cc1)C(=O)N[C@@H](CCCCN)C(=O)N[C@@H](CCC(N)=O)C(=O)N[C@@H](CCCCn1cc(C[C@H](NC(=O)CNC(=O)[C@H](CO)NC(=O)[C@H](CCCNC(=N)N)NC(=O)[C@H](CO)NC(=O)[C@H](CC(C)C)NC(=O)[C@H](CC(C)C)NC(=O)CNC(=O)[C@H](C)NC(=O)[C@H](CC(C)C)NC(=O)[C@H](CCCNC(=N)N)NC(=O)[C@H](Cc2c[nH]cn2)NC(=O)[C@@H](NC(=O)[C@@H](N)C(C)C)[C@@H](C)O)C(=O)N[C@H](C(=O)N[C@H](C(=O)N[C@@H](CCCCN)C(=O)N[C@@H](CC(N)=O)C(=O)N[C@@H](CC(N)=O)C(=O)N[C@@H](Cc2ccccc2)C(=O)N[C@H](C(=O)N2CCC[C@H]2C(=O)N[C@H](C(=O)N[C@@H](CC(N)=O)C(=O)N[C@H](C(=O)NCC(=O)N[C@@H](CO)C(=O)N[C@@H](CCCCN)C(=O)N[C@@H](C)C(=O)N[C@@H](Cc2ccccc2)C(N)=O)C(C)C)[C@@H](C)O)C(C)C)C(C)C)C(C)C)nn1)C(=O)N[C@H](C(=O)N[C@@H](CCCCN)C(=O)N[C@@H](CC(N)=O)C(=O)N[C@@H](CCCCN)C(N)=O)C(C)C)C(C)C)C(C)C | ADCYAP1R1 del89-109 | cAMP accumulation, antagonist | COS-7 transfected | from pA2, single concentration, added: PACAP-38 | – | Kb | 3.8 µM
CC(C)C[C@H](NC(=O)[C@@H](NC(=O)CNC(=O)[C@H](Cc1ccccc1)NC(=O)[C@H](CCCCN)NC(=O)[C@H](Cc1ccc(O)cc1)NC(=O)[C@H](C)N)[C@@H](C)O)C(=O)N[C@@H](CCC(N)=O)C(=O)N1CCC[C@H]1C(=O)N[C@@H](Cc1ccccc1)C(=O)N[C@H](C(=O)N[C@@H](Cc1ccc(O)cc1)C(=O)O)[C@@H](C)O | V-type immunoglobulin domain-containing suppressor of T-cell activation, IgV domain (VSIR, Homo sapiens, UniProt Q9H7M9) | microscale thermophoresis | – | concentration not given | – | binding | no binding
Cc1ccc(N2CC3CC(C2)N3)cc1C(=O)NC1(c2ccc3c4c(cccc24)C(=O)N3C)CC1 | Cytochrome P450 2C9 (CYP2C9, Homo sapiens, UniProt P11712) | enzyme activity, inhibitor | – | – | – | IC50 | > 50 µM
CS(C)(=O)=Nc1ccc(-c2ccc(-c3nc4cc(O[C@@H]5CO[C@H]6[C@@H]5OC[C@H]6O)[nH]c4cc3F)cc2)cc1 | Cyclin-dependent kinase 3, with cyclin E (CDK3, Homo sapiens, UniProt Q00526) | enzyme activity, inhibitor | – | 10 µM | – | inhibition | 4%
O=C1NC2(CC2)COc2ncc(F)cc2[C@H]2COCCN2c2ccn3ncc1c3n2 | – | – | Sprague-Dawley rat, female, serum | oral, 20 mg/kg/day, end of treatment, 4-week subacute toxicity | – | serum sodium | 146 ± 2 mmol/L
O=C(Cc1ccc(Br)cc1)N[C@H]1CCSC1=O | sdiA | – | – | – | – | EC50 | 0.00641 µM
CC(C)(C)C(=O)OCOP(=O)(OCOC(=O)C(C)(C)C)C1CCCN(O)C1=O (stereo not shown) | NCI-H322M | – | – | – | – | log LC50 | > -4 log M
CC(=O)N[C@@H](CCCNC(=N)N)C(=O)N[C@@H](Cc1ccc(O)cc1)C(=O)N[C@@H](CCCNC(=N)N)C(=O)N[C@@H](CC(C)C)C(=O)N[C@@H](CCCNC(=N)NC(=O)NCCCCN)C(=O)N[C@@H](Cc1ccc(O)cc1)C(N)=O | NPY4R | β-arrestin-2 recruitment, antagonist | HEK293T-ARRB2 | added: 3 nM human pancreatic polypeptide | – | Kb | 3.84 ± 0.055 µM
CSCC[C@H](NC(=O)[C@H](CCC(N)=O)NC(=O)[C@H](CCCCN)NC(=O)[C@H](CCCNC(=N)N)NC(=O)[C@H](Cc1ccc(O)cc1)NC(=O)[C@H](CCCNC(=N)N)NC(=O)[C@H](CO)NC(=O)[C@H](Cc1ccc(O)cc1)NC(=O)[C@H](CO)NC(=O)[C@H](CC(=O)O)NC(=O)[C@@H](NC(=O)[C@@H](N)Cc1ccccc1)[C@@H](C)O)C(=O)N[C@@H](C)C(=O)N[C@H](C(=O)N[C@@H](CCCCN)C(=O)N[C@@H](CCCCN)C(=O)N[C@@H](Cc1ccc(O)cc1)C(=O)N[C@@H](CC(C)C)C(=O)N[C@@H](C)C(=O)N[C@@H](C)C(=O)N[C@H](C(=O)N[C@@H](CC(C)C)C(=O)NCC(=O)N[C@@H](CCCCN)C(=O)N[C@@H](CCCNC(=N)N)C(=O)N[C@@H](Cc1ccc(O)cc1)C(=O)N[C@@H](CCCCN)C(=O)N[C@@H](CCC(N)=O)C(=O)N[C@@H](CCCNC(=N)N)C(=O)N[C@H](C(=O)N[C@@H](CCCCN)C(=O)N[C@@H](CC(N)=O)C(=O)N[C@@H](CCCCn1cc(C[C@H](NC(=O)CNC(=O)[C@H](CO)NC(=O)[C@H](CCCNC(=N)N)NC(=O)[C@H](CO)NC(=O)[C@H](CC(C)C)NC(=O)[C@H](CC(C)C)NC(=O)CNC(=O)[C@H](C)NC(=O)[C@H](CC(C)C)NC(=O)[C@H](CCCNC(=N)N)NC(=O)[C@H](Cc2c[nH]cn2)NC(=O)[C@@H](NC(=O)[C@@H](N)C(C)C)[C@@H](C)O)C(=O)N[C@H](C(=O)N[C@H](C(=O)N[C@@H](CCCCN)C(=O)N[C@@H](CC(N)=O)C(=O)N[C@@H](CC(N)=O)C(=O)N[C@@H](Cc2ccccc2)C(=O)N[C@H](C(=O)N2CCC[C@H]2C(=O)N[C@H](C(=O)N[C@@H](CC(N)=O)C(=O)N[C@H](C(=O)NCC(=O)N[C@@H](CO)C(=O)N[C@@H](CCCCN)C(=O)N[C@@H](C)C(=O)N[C@@H](Cc2ccccc2)C(N)=O)C(C)C)[C@@H](C)O)C(C)C)C(C)C)C(C)C)nn1)C(N)=O)C(C)C)C(C)C)C(C)C | ADCYAP1R1 del89-109 | cAMP accumulation, antagonist | – | added: PACAP-27 | – | Kb | 0.331 µM

For quick reference, copied from above:
SMILES | target or system | assay | system | conditions | how to read | measurement | value
COc1ccccc1-c1n[nH]c2nc(NC3CCN(C(=O)Cc4ccc(F)cc4F)CC3)ncc12 | – | bead binding, competition bead pull-down, measured: LINJ.10.0200 | Leishmania donovani extract | 10 µM | relative to: vehicle | relative abundance | 0.77
